# Results from different studies.
# A part holds a random share of what one study measured. Positions count from the first letter of the parent shown.

# Sample 1 — method: RNA Bind-n-Seq; form: RNA; matrix: in vitro; tested at: 365 nM; relative to: no-protein control; direction: higher = stronger binding
# Target: RNA binding protein fox-1 homolog 2, RRM domain, GST-SBP tag (RBFOX2, Homo sapiens, UniProt O43251-10, residues 100-194)
# Notes: natural RNA segment, single round, ends assumed
# Shared flanks, not repeated: GGGAGUUCUACAGUCCGACGAUC … UGGAAUUCUCGGGUGCCAA
# Target sequence (chain): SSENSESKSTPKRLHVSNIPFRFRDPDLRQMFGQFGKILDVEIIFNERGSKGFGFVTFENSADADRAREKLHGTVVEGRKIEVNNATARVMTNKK
Oligonucleotide,RBNS enrichment (R)
CCACCACCACCUUUUUUCUUUAUUUUAACUGUCAUCAGAAAUUACAUUUGUCAUGUGGGAAGAAUUUAGAUUAUGAUGCAGGAAAUUUCUUCCUGGGGUCAGAAGUUUCU,0.399
GUGUGUGUUCAUUAUAGGUUAUUCAGCAAAGUGGACCCUGACAGUUUCUCGGUUUCCCCAGUGCUGAAGACAGCAUUGCCAUCCAAAGAAACUCACAUUUUCUUUAAAGC,0.625
UGAAAAUCACAUUUUGAUACAAACACCAGAUUUGAAAGUUCAAUGUGUUUGAUCUCAGGAGUCCAAAAUAAGUUGUUGCUUCUAGUGUCCUGCAUUUUAUUGACUGGGGU,0.567
GACAGGUGAGGAUCAGCAGGGUCCACGUGUCUGCUGUUGCCAGCAAAGGGGGUCACUGGCUUUACCUGGAGCCUGGCCAGCUAGGUAGCUGGACGUAUAUAAAGGGUCCU,0.308
AAUUAAAGUUAUUAUAACAGUAAUUCUUUGAAGUCGAUCUGUCCUUCAGUUUUCUUUUCUACAAUAAAGUGUUCGUUAAAUUUGGUUAAAAACAAAACAACAAACUUGAU,0.58
GACAGCAGUCUUUUUUUUUAAUUUAAAAAAAAAAAGAUAUAUUAACAGUUUUAGAAGUCAGUAGAAUAAAACCUUAAAGCGUUCUUAUAAUAUGGCAUCUUUCGAUUUCU,0.537
AAUAAAUUUAUUCAUUAUAGAUAUUUGCGCCUGCUCUGUUUACUUGGAGGAAAAAGCACCCGUUGAGAACAAACAGACCUCAAUAAACAAGAAUAAUCAUGUGACCAUGG,0.944
CAACGGCUGGGACUGACCCCCGCUCCCCCGACGCAUGUGGCUCCAGCCCGGCCUGGCCGCCAGGGAGCGCCACUGGCUUCCCGCCACCCGAAGGGAGCUCUGGACCCUCA,1.8

# Sample 2 — target: CCND1, cyclin fold, Cln2 fusion (human); method: yeast growth competition, sequencing; matrix: yeast; notes: strong parent motif; relative to: not given; direction: higher = stronger binding; starting sequence: viral docking peptide; KGVKRKLFAEDSS
Substitution,normalised enrichment score
L7H,-0.0523
R5G,-0.459
D11E,1.78
F8P,-0.0314
S12C,1.65
G2V,1.06
D11C,0.648
A9E,1.84
K4D,0.00898
V3E,0.347
A9Y,0.972
K6M,0.824
K4I,2.31
S12I,1.52
A9V,1.37
E10G,0.493
V3T,1.59
D11S,0.888
S12E,2.2
G2A,1.16
D11N,0.503
K4Q,1.65
R5D,0.0537
A9F,1.66
G2T,1.67

# Sample 3 — read-out: peptide-MHC binding; form: peptide; tested at: concentration not given
# Target: HLA class I histocompatibility antigen, A alpha chain, allele A*80:01 (Homo sapiens, UniProt P04439)
Sequence,binding
SMRSRARHI,inactive
YTMDGEYRL,inactive
LAYLAGWII,inactive

# Sample 4 — method: RNA Bind-n-Seq; form: RNA; matrix: in vitro; tested at: not given; relative to: input RNA pool; direction: higher = stronger binding
# Target: RING finger protein unkempt homolog, zinc fingers 1-6, GST-SBP tag (UNK, Homo sapiens, UniProt Q9C0B0, residues 30-357)
# Notes: RNA with constant flanks, human and mouse sites, ends assumed
# Shared flanks, not repeated: GGGAGUUCUACAGUCCGACGAUC … CAACAGAGGAUUGAGCAUCA
# Construct (chain): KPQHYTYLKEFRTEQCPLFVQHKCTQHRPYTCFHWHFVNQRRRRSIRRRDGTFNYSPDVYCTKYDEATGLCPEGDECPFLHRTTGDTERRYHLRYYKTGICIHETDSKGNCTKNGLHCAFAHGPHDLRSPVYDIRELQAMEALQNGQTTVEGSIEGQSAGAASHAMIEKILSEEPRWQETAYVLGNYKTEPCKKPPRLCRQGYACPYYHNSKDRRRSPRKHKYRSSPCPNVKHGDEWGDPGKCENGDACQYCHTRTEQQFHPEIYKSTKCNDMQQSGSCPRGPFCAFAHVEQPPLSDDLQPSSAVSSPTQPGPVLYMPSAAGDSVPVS
Oligonucleotide,bound/input enrichment [ratio]
UGAGUUAUUUAAUCAAAACAAAUCUUAAAAUAUAGUUGCUCUUUACGUUUAAUCUUCAUUUUUUUCAGAUCUUAAGUUUCAGAUCUUACGAAUGUUGUACUUAUGUCUAAUUUGGGAAUG,2.32
AAGUUACAGAUUUUAGCCAGUCUUUGCUUUUAUACUUUUGUGAAAUUUAAUUUCUCUCUAUAGCACCUUCCUUUUUCGUUUUCAGUUAUCAAAAGUGACUUUGACCUCAUAAAAGAGUUG,1.4
GCUGGGCAUAUAAUGGAAUUUUCUCAAGACCAGCAUGGCUCUAGAUUCAUUCAGCUGAAACUAGAGCGUGCCACAGCAGCUGAGCGCCAGCUUGUCUUCAAUGAAAUCCUCCAGGCUGCG,0.153
GCGACCGAGCCAGUCAAAGAUGCAGAUCCUCAUUUUCAUCAUUUUCUGUUGAGCCAAACAGAGAAGCCAGCUGUCUGUUACCAGGCAAUCACAAAGAAGUUGAAAAUAUGUGAAGAGGAA,0.587
GUAAUGCAUACUUUAGCAGCUUCACUUUCUGCUUGUAUUUAUCAGUGCCUUUGUGGUAGUCAUAACUACAGUUCAUUUCAGACGAAUCAGUUUACUGGAAUGGUAUAUCAGACAGUACUG,0.219
UUAUGUUUAUUGAUUAAAUAAUAUCAUUUGUCUUUCUGCAGUUAUGAGGCUGCUAGCCUGUGAGGGAAAACCUGUUUGUCUUAUUAGAGUUUCUCCCAAAAUGGUUUCAAAUUGGGAACU,0.368
CUCAGUGAUCACACACGAAAUUCUGCCGAAGGCACAGAAUAUUUCAAAAUGCUUGUAGACGUUUUUGCUCCAGAAUUUCGAAGGCCAAAGAAUAUACAUCUCCGAAAUUUCUAUAUAAUU,0.19
AGGGCCGCUCCUUCACGCCGGAGACAGGCGGGCCGCCGGUUGCGCUACCUGCCUACUGGUAGCUUUCCCUUCCUCCUCUUGCUGCUGCUGCUCUGCAUCCAGCUCGGGGGCGGACAGAAG,0.0975

# Sample 5 — method: protein-binding microarray; form: hairpin DNA; matrix: in vitro; tested at: not given; relative to: not given; direction: higher = stronger binding
# Target: Microphthalmia-associated transcription factor, full length (MITF, Homo sapiens, UniProt O75030-10, residues 1-413)
# Notes: whole hairpin DNA, median over replicate spots
Oligonucleotide,median fluorescence
GAGGCCTAGCACCGGCTGCCTCCTGGCAGCCGGTGCTAGGCCTCACACTC,6190 a.u.
CACTCAGCACGTGATTTTGGTCCTCCAAAATCACGTGCTGAGTGACACTC,27500 a.u.
GAGGCCAAGCACGTGCTGCCTCCTGGCAGCACGTGCTTGGCCTCACACTC,24700 a.u.
CACTTAGCACGTCGTTTTGGTCCTCCAAAACGACGTGCTAAGTGACACTC (5mC at 13 31),4860 a.u.
GAGGCCTAGCGCGTGCTGCCTCCTGGCAGCACGCGCTAGGCCTCACACTC (5mC at 10 34),12000 a.u.
GAGGCCTAGCACGCGCTGCCTCCTGGCAGCGCGTGCTAGGCCTCACACTC,13200 a.u.
CACTTAGGACGTGATTTTGGTCCTCCAAAATCACGTCCTAAGTGACACTC (5mC at 37),5570 a.u.
CACTTAGCACGTAATTTTGGTCCTCCAAAATTACGTGCTAAGTGACACTC,4440 a.u.

# Repeated from above (sample 4):
Oligonucleotide,bound/input enrichment [ratio]
UGAGUUAUUUAAUCAAAACAAAUCUUAAAAUAUAGUUGCUCUUUACGUUUAAUCUUCAUUUUUUUCAGAUCUUAAGUUUCAGAUCUUACGAAUGUUGUACUUAUGUCUAAUUUGGGAAUG,2.32
AAGUUACAGAUUUUAGCCAGUCUUUGCUUUUAUACUUUUGUGAAAUUUAAUUUCUCUCUAUAGCACCUUCCUUUUUCGUUUUCAGUUAUCAAAAGUGACUUUGACCUCAUAAAAGAGUUG,1.4
GCUGGGCAUAUAAUGGAAUUUUCUCAAGACCAGCAUGGCUCUAGAUUCAUUCAGCUGAAACUAGAGCGUGCCACAGCAGCUGAGCGCCAGCUUGUCUUCAAUGAAAUCCUCCAGGCUGCG,0.153
GCGACCGAGCCAGUCAAAGAUGCAGAUCCUCAUUUUCAUCAUUUUCUGUUGAGCCAAACAGAGAAGCCAGCUGUCUGUUACCAGGCAAUCACAAAGAAGUUGAAAAUAUGUGAAGAGGAA,0.587
GUAAUGCAUACUUUAGCAGCUUCACUUUCUGCUUGUAUUUAUCAGUGCCUUUGUGGUAGUCAUAACUACAGUUCAUUUCAGACGAAUCAGUUUACUGGAAUGGUAUAUCAGACAGUACUG,0.219
UUAUGUUUAUUGAUUAAAUAAUAUCAUUUGUCUUUCUGCAGUUAUGAGGCUGCUAGCCUGUGAGGGAAAACCUGUUUGUCUUAUUAGAGUUUCUCCCAAAAUGGUUUCAAAUUGGGAACU,0.368
